Results of several laboratories.
Every numbered part comes from another study and shows a few of its results, in no order. “And” joins repeats or separate records; there may be more than shown.

Series 1
Target: Ephrin type-A receptor 8 (EPHA8, Homo sapiens, UniProt P29322)
Sequence of UniProt P29322 (whole entry, looked up): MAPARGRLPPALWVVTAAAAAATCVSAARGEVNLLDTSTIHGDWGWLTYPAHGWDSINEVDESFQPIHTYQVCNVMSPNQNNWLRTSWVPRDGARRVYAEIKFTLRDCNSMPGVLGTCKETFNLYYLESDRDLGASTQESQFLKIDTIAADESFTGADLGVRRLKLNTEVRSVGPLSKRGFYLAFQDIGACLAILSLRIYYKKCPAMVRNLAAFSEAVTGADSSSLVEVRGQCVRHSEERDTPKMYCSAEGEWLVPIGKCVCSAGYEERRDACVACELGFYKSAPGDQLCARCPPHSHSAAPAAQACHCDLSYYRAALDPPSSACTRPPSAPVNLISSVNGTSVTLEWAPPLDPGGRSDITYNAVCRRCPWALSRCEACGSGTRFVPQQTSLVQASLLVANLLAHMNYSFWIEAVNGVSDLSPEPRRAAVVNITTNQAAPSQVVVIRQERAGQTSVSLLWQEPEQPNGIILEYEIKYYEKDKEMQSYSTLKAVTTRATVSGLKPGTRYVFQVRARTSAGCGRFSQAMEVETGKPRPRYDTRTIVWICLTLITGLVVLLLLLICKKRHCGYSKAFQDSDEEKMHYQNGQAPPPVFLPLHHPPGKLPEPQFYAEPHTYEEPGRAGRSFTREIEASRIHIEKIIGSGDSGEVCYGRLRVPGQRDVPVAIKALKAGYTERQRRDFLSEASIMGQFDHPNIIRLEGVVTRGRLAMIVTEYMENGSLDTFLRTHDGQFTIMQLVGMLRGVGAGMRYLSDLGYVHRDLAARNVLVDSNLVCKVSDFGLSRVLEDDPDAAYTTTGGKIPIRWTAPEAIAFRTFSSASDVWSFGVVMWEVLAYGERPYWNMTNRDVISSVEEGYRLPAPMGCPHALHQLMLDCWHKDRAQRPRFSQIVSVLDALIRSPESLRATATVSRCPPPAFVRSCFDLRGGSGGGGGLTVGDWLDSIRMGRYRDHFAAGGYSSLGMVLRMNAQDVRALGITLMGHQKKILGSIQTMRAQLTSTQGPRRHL
Observed: enzyme activity
Mode: inhibitor
Concentration: 0.5 µM
Reference: control
C#Cc1cccc(Nc2ncnc3cc(OCCOC)c(OCCOC)cc23)c1 has a remaining activity of 89.7%.
With NCCNc1ncc(C(N)=O)c(Nc2cccc(C(F)(F)F)c2)n1 the remaining activity was 85.9%.
For O=C(O)c1ccc2c3c1cccc3c(=O)n1c3ccccc3nc21, the remaining activity was 89.4%.
The remaining activity of COc1cc2ncnc(Nc3ccc(F)c(Cl)c3)c2cc1OCCCN1CCOCC1 is reported as 84.5%.
With CNC(=O)c1cc(Oc2ccc(NC(=O)Nc3ccc(Cl)c(C(F)(F)F)c3)cc2)ccn1 the remaining activity was 94.5%.
Oc1ccc(-c2nc(-c3ccncc3)c(-c3ccc(F)cc3)[nH]2)cc1 gave a remaining activity of 93.6%.
The remaining activity of CN(C)c1ccc(C=C2C(=O)Nc3ccccc32)cc1 is reported as 103%.
For COc1ccc(C(=O)Nc2sc3c(c2C(N)=O)CCCC3)cc1OC, the remaining activity was 114%.
For COc1ccc(OC)c2c(=S)c3ccccc3[nH]c12, the remaining activity was 93.8%.
COc1ccc(CNC(=O)Nc2ncc([N+](=O)[O-])s2)cc1 gave a remaining activity of 109%.
O=c1c2ccccc2[nH]c(=S)n1CCN1CCC(=C(c2ccc(F)cc2)c2ccc(F)cc2)CC1 gave a remaining activity of 102%.
For OCC(O)CCON=C1C(c2c(O)[nH]c3ccccc23)=Nc2ccccc21 (centres unmarked), the remaining activity was 91.9%.
For Nc1[nH]nc2nc3ccccc3nc12, the remaining activity was 104%.
Nc1ncnc2n[nH]c(Nc3ccc(F)cc3)c12 has a remaining activity of 94%.
The remaining activity of COc1cc2nccc(Oc3ccc(NC(=S)NC(=O)c4ccccc4C)cc3)c2cc1OC is reported as 84.1%.
With O=C(CCCc1ccc(-c2ccccc2F)cc1)Nc1ccc(O)cc1 the remaining activity was 114%.

Series 2
Cell line: A-375
Concentration: 100 µM
Time: 18 h
Nc1nc(=O)[nH]cc1F has a viability of 99.6%.
The viability of COc1cc2c(cc1Cc1cccc(Cl)c1F)c(=O)c(C(=O)O)cn2[C@H](CO)C(C)C is reported as 62%.
With OCc1ccc(O[C@@H]2O[C@H](CO)[C@@H](O)[C@H](O)[C@H]2O)cc1 the viability was 104%.
With CN(C)CCC=C1c2ccccc2C=Cc2ccccc21 the viability was 11.7%.
The viability of C[C@]12CC[C@@H]3c4ccc(O)cc4C[C@@H](CCCCCCCCC[S+]([O-])CCCC(F)(F)C(F)(F)F)[C@H]3[C@@H]1CC[C@@H]2O (some centres unmarked) is reported as 96.7%.
The viability of COC(=O)C1=CO[C@@H](O)[C@@H]2C(CO)=CC[C@H]12 is reported as 94.6%.
For Nc1c2c(nc3ccccc13)CCCC2, the viability was 55.4%.

Series 3
SMILES: COc1ccc2c(O[C@@H]3C[C@H]4C(=O)N[C@]5(C(=O)O)CC5/C=C\CCCCC[C@H](NC(=O)OC5CCCC5)C(=O)N4C3)cc(-c3csc(NC(=O)C(C)C)n3)nc2c1C (some centres unmarked)
Concentration: 1 µM
Reference: DMSO
The viability was 110% (sample B colorectal tumour organoid; replicate 2).
The viability was 104% (colorectal tumour organoids).
sample B colorectal tumour organoid; replicate 1 — viability: 98.1%.
It gave 108% for viability (sample C colorectal tumour organoid; replicate 2).

Series 4
Organism: Sarcocystis neurona
Observed: parasite growth
Concentration: 10 µM
Nc1ncn([C@@H]2O[C@H](CO)[C@@H](O)[C@H]2O)c(=O)n1 has an inhibition of -26.4%.
[H]/N=C(/NCCCCC)N/N=C/c1c[nH]c2ccc(OC)cc12 gave an inhibition of 98.6%.
With C[n+]1ccccc1/C=N/O the inhibition was -28.9%.
c1ccc(-c2ccc(C(c3ccccc3)n3ccnc3)cc2)cc1 (centres unmarked) gave an inhibition of 52.1%.

Single results of other studies
CC(=O)N[C@@H](Cc1c[nH]c2ccccc12)C(=O)N[C@@H](CCC(=O)C=[N+]=[N-])C(=O)OC(C)C gave a sucrose level of 516000 a.u. and 191000 a.u. and 76100 a.u. and 366000 a.u. and 239000 a.u. and 291000 a.u. (UPLC-MS/MS; EL4 tumor, C57BL/6 CES1-/- mice, tumor; subcutaneous, 0.3 mg/kg DON equivalent daily, 5 days; higher = more metabolite).

For quick reference, copied from above (series 3):
sample B colorectal tumour organoid; replicate 1 — viability: 98.1%.
The viability was 104% (colorectal tumour organoids).
It gave 108% for viability (sample C colorectal tumour organoid; replicate 2).
The viability was 110% (sample B colorectal tumour organoid; replicate 2).
